Measurements of several laboratories.
Compare with care: the assays were run in different laboratories. Values joined by “and” are separate records of one study, mostly repeats; a detail may differ. ± gives the spread as reported. ≈ marks a conversion by molar mass, not a printed value.
Chain of UniProt Q9UKP6 (whole entry, looked up): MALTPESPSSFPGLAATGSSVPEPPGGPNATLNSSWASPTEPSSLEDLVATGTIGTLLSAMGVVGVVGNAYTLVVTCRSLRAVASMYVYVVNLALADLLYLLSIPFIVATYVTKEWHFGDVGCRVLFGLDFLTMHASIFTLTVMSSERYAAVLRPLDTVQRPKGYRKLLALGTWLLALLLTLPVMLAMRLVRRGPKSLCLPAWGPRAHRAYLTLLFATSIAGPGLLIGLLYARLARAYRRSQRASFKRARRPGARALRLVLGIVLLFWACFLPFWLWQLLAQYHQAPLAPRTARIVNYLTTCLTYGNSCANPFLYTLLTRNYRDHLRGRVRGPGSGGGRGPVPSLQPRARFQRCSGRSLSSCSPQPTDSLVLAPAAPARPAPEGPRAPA
Chain of UniProt Q13043 (whole entry, looked up): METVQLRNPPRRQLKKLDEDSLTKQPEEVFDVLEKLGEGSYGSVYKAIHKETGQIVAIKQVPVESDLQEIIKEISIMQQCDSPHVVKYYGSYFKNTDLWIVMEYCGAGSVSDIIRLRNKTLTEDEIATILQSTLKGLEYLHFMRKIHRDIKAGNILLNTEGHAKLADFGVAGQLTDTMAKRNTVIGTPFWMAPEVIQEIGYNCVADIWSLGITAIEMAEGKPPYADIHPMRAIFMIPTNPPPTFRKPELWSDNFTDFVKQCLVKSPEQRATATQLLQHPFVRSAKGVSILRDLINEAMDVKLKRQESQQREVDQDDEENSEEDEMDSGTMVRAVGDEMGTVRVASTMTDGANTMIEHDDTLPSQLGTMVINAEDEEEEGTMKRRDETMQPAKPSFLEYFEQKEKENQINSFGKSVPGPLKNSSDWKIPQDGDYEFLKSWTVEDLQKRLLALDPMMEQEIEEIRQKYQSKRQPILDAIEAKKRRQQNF
Chain of UniProt P41146 (whole entry, unmodified, looked up): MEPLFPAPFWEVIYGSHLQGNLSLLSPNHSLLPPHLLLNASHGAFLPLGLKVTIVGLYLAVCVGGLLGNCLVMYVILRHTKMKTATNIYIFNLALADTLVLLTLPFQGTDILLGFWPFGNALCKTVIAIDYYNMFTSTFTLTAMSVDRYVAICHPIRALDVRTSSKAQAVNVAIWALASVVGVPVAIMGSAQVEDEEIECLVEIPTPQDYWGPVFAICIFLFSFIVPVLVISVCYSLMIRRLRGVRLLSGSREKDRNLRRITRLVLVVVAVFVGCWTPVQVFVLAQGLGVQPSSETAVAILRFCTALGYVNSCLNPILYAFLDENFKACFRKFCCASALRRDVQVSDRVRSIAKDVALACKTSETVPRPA

CCCCCCCCCCn1cc[n+](CCCCOc2cc(OCCCC[n+]3ccn(CCCCCCCCCC)c3)cc(OCCCC[n+]3ccn(CCCCCCCCCC)c3)c2)c1.[Br-].[Br-].[Br-]
MIC (Enterococcus faecalis; OG1RF): 1 µM

COC1CN([C@H]2CC[C@H]([C@@]3(C)Oc4c(Cl)cc(C(=O)NCc5c(SC)cc(C)[nH]c5=O)c(C)c4O3)CC2)C1
log2 fold change (RNA-seq, refers to: RUNDC3A mouse homolog; mouse, HT-1376 xenograft, whole blood; dose not given; reference: vehicle): 3.32

COc1ccc(Nc2n[nH]c3nc(-c4ccccc4)nc(N)c23)cc1
IC50 (rhinovirus A2; viral cytopathic effect; HeLa): 17.2 µM

CC(=O)OC[C@H]1O[C@@H](Sc2sc(C(=O)c3ccc(Cl)cc3)c(N)c2-c2nc3ccccc3s2)[C@H](OC(C)=O)[C@@H](OC(C)=O)[C@H]1OC(C)=O
viral reduction (coxsackievirus B4; plaque reduction; non-toxic dose NG, mean over three titres): 23.3%

O=C(NCCCN1CCC2(CC1)OCc1ccccc12)C1CCCN1Cc1ccccc1 (stereo not shown)
Ki (Nociceptin receptor (OPRL1, Homo sapiens, UniProt P41146, Y309A)): > 10 µM

CC(=O)OC[C@H]1O[C@@H](Sc2sc(C(=O)c3ccc(Br)cc3)c(N)c2-c2nc3ccccc3s2)[C@H](OC(C)=O)[C@@H](OC(C)=O)[C@H]1OC(C)=O
viral reduction (coxsackievirus B4; plaque reduction; non-toxic dose NG, mean over three titres): 40%

CC(C)[C@@H]1NC(=O)[C@@H](CCCNC(=N)N)NC(=O)[C@H]([C@@H](C)O)NC(=O)[C@@H](CCCN)NC(=O)[C@H](Cc2ccc(F)cc2)NC(=O)[C@@H](Cc2ccccc2)NC1=O
IC90 (Balamuthia mandrillaris; parasite growth, ATP luminescence): 12.5 µM

CC(C)C[C@H](NC(=O)[C@@H](CCCCNC(=O)[C@@H](Cc1ccccc1)NC(=O)CCCCCNC(=O)CN1CCN(CC(=O)O)CCN(CC(=O)O)CCN(CC(=O)O)CC1)NC(=O)[C@H](Cc1ccc(O)cc1)NC(=O)[C@H](CO)NC(=O)[C@H](Cc1c[nH]c2ccccc12)NC(=O)[C@H](Cc1c[nH]cn1)NC(=O)[C@@H]1CCC(=O)N1)C(=O)N[C@@H](CCCNC(=N)N)C(=O)N1CCC[C@H]1C(=O)NCC(N)=O [indium-111 labelled]
tissue uptake (female athymic nude mice, liver; intravenous, 0.037 MBq, 0.5 h): 1.3 ± 0.39 %ID/g

CCCCCCCCCC(=O)N[C@@H](Cc1c[nH]c2ccccc12)C(=O)N[C@H](CC(N)=O)C(=O)N[C@@H](CC(=O)O)C(=O)N[C@@H]1C(=O)NCC(=O)N[C@@H](CCCNC(=O)OC2/C=C/CCCCC2)C(=O)N[C@@H](CC(=O)O)C(=O)N[C@H](C)C(=O)N[C@@H](CC(=O)O)C(=O)NCC(=O)N[C@H](CO)C(=O)N[C@@H]([C@H](C)CC(=O)O)C(=O)N[C@@H](CC(=O)c2ccccc2N)C(=O)O[C@@H]1C (stereo partly shown)
peak heat flow time (Staphylococcus aureus; planktonic bacterial growth, isothermal microcalorimetry; MRSA; 2.0 µg/mL, 24 h, 37 °C, together with: TAG hydrogel): 0 h

CCCCCC[N+](C)(C)CCCCCCCCOc1cc(OCCCCCCCC[N+](C)(C)CCCCCC)cc(OCCCCCCCC[N+](C)(C)CCCCCC)c1.[Br-].[Br-].[Br-]
MIC (Enterococcus faecalis; OG1RF): 1 µM

CC(C)[C@H](NC(=O)[C@@H]1CSSC(C)(C)[C@H](NC(=O)[C@@H](N)CC(=O)O)C(=O)N[C@@H](Cc2ccccc2)C(=O)N[C@H](Cc2c[nH]c3ccccc23)C(=O)N[C@@H](CCCN)C(=O)N[C@@H](Cc2ccc(O)cc2)C(=O)N1)C(=O)O
EC50 (Urotensin-2 receptor (UTS2R, Homo sapiens, UniProt Q9UKP6); calcium signal, agonist, fluorescence): 0.00867 µM

COC1C=COC2(C)Oc3c(C)c(O)c4c(c3C2=O)C2=NC3(CCN(CC(C)C)CC3)NC2=C(NC(=O)C(C)=CC=CC(C)C(O)C(C)C(O)C(C)C(OC(=O)c2cccnc2)C1C)C4=O (stereo not shown)
IC90 (Mycobacteroides abscessus; intracellular growth, Hill fit; THP-1 derived macrophages, ATCC 19977): 0.35 µM

CC=C(C)C(=O)OC1CC2C(C=C(C)C3C(OC(C)=O)CC(=O)C13C)OC(=O)C2C (stereo not shown)
inhibition (Helicobacter pylori; microbial growth, broth dilution; 62.5 µg/mL): 0%

FC(F)(F)c1cccc(CNc2nc(NC3CCN(Cc4ccccc4)CC3)c3nc[nH]c3n2)c1
log2 fold change (Cryptococcus neoformans; RNA-seq, refers to: ASP1 (CNAG_02161); wild type; 48 µg/mL, 3 h; reference: untreated wild type): -0.404

N#Cc1ccc(Nc2n[nH]c3nc(-c4ccccc4)nc(N)c23)cc1
IC50 (rhinovirus A2; viral cytopathic effect; HeLa): 137 µM

Cc1nn(-c2cccc(N)c2)c(=O)c2cnc(Nc3ccc(N4CCNCC4)cc3)nc12
IC50 (Serine/threonine-protein kinase 4 (STK4, Homo sapiens, UniProt Q13043); enzyme activity, inhibitor): > 10 µM

CC(=O)O[C@@H]1[C@@H](OC(C)=O)[C@H](Sc2sc(C(=O)c3ccc(Cl)cc3)c(N)c2-c2nc3ccccc3s2)OC[C@H]1OC(C)=O
viral titre reduction (coxsackievirus B4; plaque reduction; non-toxic concentration): 20%

C=CC(=O)Nc1cccc(Cn2ncc3cnc(Nc4cnn(CCOC)c4)nc32)c1
percent of control (LIMK2 human; binding, KINOMEscan; 100 nM; lower = stronger binding): 91%

CO[C@@H]1[C@@H](OC)[C@H]2O[C@H]3[C@H](OC)[C@@H](OC)[C@@H](O[C@H]4[C@H](OC)[C@@H](OC)[C@@H](O[C@H]5[C@H](OC)[C@@H](OC)[C@@H](O[C@H]6[C@H](OC)[C@@H](OC)[C@@H](O[C@H]7[C@H](OC)[C@@H](OC)[C@@H](O[C@@H]1[C@@H](Cn1cc(CCCC(=O)N[C@H]8CCOC8=O)nn1)O2)O[C@@H]7Cn1cc(CCCC(=O)N[C@H]2CCOC2=O)nn1)O[C@@H]6Cn1cc(CCCC(=O)N[C@H]2CCOC2=O)nn1)O[C@@H]5Cn1cc(CCCC(=O)N[C@H]2CCOC2=O)nn1)O[C@@H]4Cn1cc(CCCC(=O)N[C@H]2CCOC2=O)nn1)O[C@@H]3Cn1cc(CCCC(=O)N[C@H]2CCOC2=O)nn1
inhibition (Escherichia coli; LuxR reporter, antagonist; DH5α sensor strain; 40 µM, together with: OHHL 200 nM): 16 ± 4%

CN1CCCNC(=O)c2cccc(c2)C(=O)NCCCN(C)CCCNc2cccc3c2C(=O)c2cccc(c2C3=O)NCCC1
log2 fold change (SAS; RNA-Seq, refers to: SMAD2 mRNA; 1 µM, 6 h; reference: untreated cells): -0.578

CN(Cc1ccc(C2(C(F)(F)F)CCC2)cc1)Cc1cccc2ccccc12
inhibition zone (Trichophyton mentagrophytes; microbial growth, disc diffusion; ATCC18748; 0.00025 µg/mL, 72 h): 0 mm

Nc1nc(-c2ccccc2)nc2[nH]nc(Nc3ccc([N+](=O)[O-])cc3)c12
IC50 (rhinovirus A2; viral cytopathic effect; HeLa): 31.7 µM

CC(=O)OC[C@H]1O[C@@H](Sc2sc(C(=O)c3ccc(C)cc3)c(N)c2-c2nc3ccccc3s2)[C@H](OC(C)=O)[C@@H](OC(C)=O)[C@@H]1OC(C)=O
viral titre reduction (coxsackievirus B4; plaque reduction; non-toxic concentration): 30%

CCOC(=O)c1cc(-c2nc3ccccc3s2)c(=O)n(NS(=O)(=O)c2ccc(Cl)cc2)c1N
plaque reduction (human adenovirus 7; viral replication, plaque; HEp-2; non-toxic dose, mean of three titres): 0%

CC(=O)O[C@@H]1[C@@H](OC(C)=O)[C@H](Sc2sc(C(=O)c3ccc(Br)cc3)c(N)c2-c2nc3ccccc3s2)OC[C@@H]1OC(C)=O
viral reduction (human adenovirus 7; plaque reduction; non-toxic dose NG, mean over three titres): 30%

C=CC(=O)N1[C@@H](c2ccc3c(c2)OCO3)c2[nH]c3ccccc3c2C[C@H]1C(=O)N1CCN(C)CC1
relative enrichment (human cyclin E1 N112C-3xFLAG:CDK2; co-IP with TMT proteomics, refers to: cyclin E1; concentration not given; reference: wild type DMSO): 100%

C#CCN1CCc2c3n(c4ccccc24)C(=O)C(C)(C)C3(C(=O)OC)C1 (stereo not shown)
inhibition (hepatitis B virus; HBsAg secretion, ELISA; HepAD38; 5 µM, 0.5% DMSO; reference: vehicle): inactive

Cc1cc(C(=O)Nc2nc3cccc(C)c3n2[C@H]2CCCCN(C(=O)/C=C/CN(C)C)C2)ccn1
proliferation (Trypanosoma brucei brucei; Lister 427; 0.21 µM, 0 h, kill kinetics): 100%

C[C@@H]1C(=O)O[C@@H](C)/C=C/C=C\[C@@H](C)[C@@H]2C=C[C@@H]3C[C@@]4(C)O[C@H]4[C@@H](C)[C@H]3[C@@H]2C(=O)C(Cl)(Cl)C1=O
MIC (Staphylococcus aureus; MRSA clinical isolate; resistant, OXA, CIP, MXF, ERY, CLI, RIF): 0.025 µg/mL

Cc1ccc(-c2nc(N)c3c(Nc4ccc(Cl)cc4)n[nH]c3n2)cc1
IC50 (rhinovirus A2; viral cytopathic effect; HeLa): 2.08 µM

CO[C@@H]1OC[C@@H](O)[C@H](O)[C@H]1O
inhibition (Helicobacter pylori; microbial growth, broth dilution; 31.25 µg/mL): 5.21%

CNS(=O)(=O)Nc1nccc(Cc2c(C)c3ccc(Oc4ncccc4F)cc3oc2=O)c1F
IC50 (NCI-H1869; cell viability, CellTiter-Glo; 7 days): 0.268 µM

CCCOC(=O)N1c2cc(CNC)ccc2[C@H](NC(=O)C(=O)Nc2ccc(Cl)c(F)c2)[C@H]1CNC(=N)N
IC80 (Human immunodeficiency virus 1; viral infection, Env pseudovirus; TZM-bl, C2101.c01 CRF01_AE): > 100 µM

Cc1ncsc1-c1ccc(C(C)NC(=O)C2CC(O)CN2C(=O)C(NC(=O)CCCCCCCCCCN2CCCC(Nc3ncc(Cl)c(Nc4ccccc4S(=O)(=O)C(C)C)n3)C2)C(C)(C)C)cc1 (stereo not shown)
log2 fold change (22Rv1; RNA-seq, refers to: TRIM65 mRNA; concentration not given; reference: DMSO): -1.44

C=C(NC(=O)c1csc(-c2nc3c(cc2O)-c2nc(cs2)C(=O)NC(C(C)O)C(=O)NC(=C(C)OC)c2nc(cs2)C(=O)NC2c4nc(cs4)C(=O)NC(COC(=O)c4c5c6c(cccc6n4O)COC(=O)C(OC4CC(C)(O)C(N(C)C)C(C)O4)C2OC5)c2nc-3cs2)n1)C(N)=O (stereo not shown)
MIC50 (Streptococcus pneumoniae; penicillin-resistant, 10 isolates; serum 25%): 0.0078 µg/mL (≈ 5.43 nM)

Cc1ccc(Nc2n[nH]c3nc(-c4ccccc4)nc(N)c23)cc1
IC50 (rhinovirus A2; viral cytopathic effect; HeLa): 5.66 µM

Cc1ccc(S(=O)(=O)Nn2c3c(cc(-c4nc5ccccc5s4)c2=O)CCCCCC3)cc1
plaque reduction (human adenovirus 7; viral replication, plaque; HEp-2; non-toxic dose, mean of three titres): 53.3%

Cc1cccc2c1N(C(=O)n1ccnn1)CC2
germination rate (Arabidopsis thaliana; kai2 mutant, seeds; 30 µM, 72 h): 80% and 61.1% and 52% and 69.7% and 53.5% and 50.9%

CC(=O)O[C@@H]1[C@@H](OC(C)=O)[C@H](Sc2sc(C(=O)c3ccc(C)cc3)c(N)c2-c2nc3ccccc3s2)OC[C@H]1OC(C)=O
viral reduction (human adenovirus 7; plaque reduction; non-toxic dose NG, mean over three titres): 20%

CC(C)(C)NCC(SS(=O)(=O)O)c1ccccc1 (stereo not shown)
liver weight (Schistosoma mansoni; perfusion day 44; infected Swiss Webster mice; 600 mg/kg single dose, dosed day 15 post-infection): 1.76 g and 1.7 g and 1.84 g and 1.5 g and 2 g

Nc1ncc(-c2cc(-c3cnn(CC(F)(F)F)c3)ncc2F)nc1C(=O)NC1CNCC(F)C1 (stereo not shown)
remaining binding (PCTK2; KINOMEscan; 1 µM; reference: DMSO control): 98%

C/C=C(/C)C(=O)O[C@@H]1C=C(C)CC[C@]2(O)[C@@H](C(C)C)CC(=O)[C@]12C
inhibition (Helicobacter pylori; microbial growth, broth dilution; 31.25 µg/mL): 0%

Fc1ccc2c(c1)c1nc3ccc(Br)cc3c-1cn2Cc1cn(-c2ccccc2I)nn1
fold change (Giardia duodenalis trophozoites; UHPLC-Q-TOF-MS metabolomics, refers to: glycochenodeoxycholic acid; IC50, 0.0185 h; reference: 0.25% DMSO): 1.58

Excerpt of the above:
Cc1ncsc1-c1ccc(C(C)NC(=O)C2CC(O)CN2C(=O)C(NC(=O)CCCCCCCCCCN2CCCC(Nc3ncc(Cl)c(Nc4ccccc4S(=O)(=O)C(C)C)n3)C2)C(C)(C)C)cc1 (stereo not shown)
log2 fold change (22Rv1; RNA-seq, refers to: TRIM65 mRNA; concentration not given; reference: DMSO): -1.44

C=C(NC(=O)c1csc(-c2nc3c(cc2O)-c2nc(cs2)C(=O)NC(C(C)O)C(=O)NC(=C(C)OC)c2nc(cs2)C(=O)NC2c4nc(cs4)C(=O)NC(COC(=O)c4c5c6c(cccc6n4O)COC(=O)C(OC4CC(C)(O)C(N(C)C)C(C)O4)C2OC5)c2nc-3cs2)n1)C(N)=O (stereo not shown)
MIC50 (Streptococcus pneumoniae; penicillin-resistant, 10 isolates; serum 25%): 0.0078 µg/mL (≈ 5.43 nM)

Cc1ccc(Nc2n[nH]c3nc(-c4ccccc4)nc(N)c23)cc1
IC50 (rhinovirus A2; viral cytopathic effect; HeLa): 5.66 µM

Cc1ccc(S(=O)(=O)Nn2c3c(cc(-c4nc5ccccc5s4)c2=O)CCCCCC3)cc1
plaque reduction (human adenovirus 7; viral replication, plaque; HEp-2; non-toxic dose, mean of three titres): 53.3%

Cc1cccc2c1N(C(=O)n1ccnn1)CC2
germination rate (Arabidopsis thaliana; kai2 mutant, seeds; 30 µM, 72 h): 80% and 61.1% and 52% and 69.7% and 53.5% and 50.9%

CC(=O)O[C@@H]1[C@@H](OC(C)=O)[C@H](Sc2sc(C(=O)c3ccc(C)cc3)c(N)c2-c2nc3ccccc3s2)OC[C@H]1OC(C)=O
viral reduction (human adenovirus 7; plaque reduction; non-toxic dose NG, mean over three titres): 20%
